# Assay results collected from several papers.
# Parts stem from different laboratories: compare values within a part only. Numbers after ± are the reported error.
# Chain of UniProt P53350 (whole entry, looked up): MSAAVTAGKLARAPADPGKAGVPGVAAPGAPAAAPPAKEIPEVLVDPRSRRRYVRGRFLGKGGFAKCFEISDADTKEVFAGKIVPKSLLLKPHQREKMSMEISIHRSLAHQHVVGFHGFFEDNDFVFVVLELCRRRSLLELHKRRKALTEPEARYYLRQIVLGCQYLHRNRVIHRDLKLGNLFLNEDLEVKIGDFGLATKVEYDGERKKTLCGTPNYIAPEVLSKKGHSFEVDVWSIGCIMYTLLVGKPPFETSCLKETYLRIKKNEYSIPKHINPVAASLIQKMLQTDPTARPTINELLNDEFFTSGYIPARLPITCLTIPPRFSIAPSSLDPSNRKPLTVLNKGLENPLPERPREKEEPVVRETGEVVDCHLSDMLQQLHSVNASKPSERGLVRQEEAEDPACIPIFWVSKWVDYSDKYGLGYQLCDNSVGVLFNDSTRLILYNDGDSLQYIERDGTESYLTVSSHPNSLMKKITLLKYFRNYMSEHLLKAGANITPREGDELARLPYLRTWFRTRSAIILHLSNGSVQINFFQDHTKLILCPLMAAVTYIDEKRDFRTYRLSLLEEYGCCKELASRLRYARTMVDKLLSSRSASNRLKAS
# Chain of UniProt P42336 (whole entry, unmodified, looked up): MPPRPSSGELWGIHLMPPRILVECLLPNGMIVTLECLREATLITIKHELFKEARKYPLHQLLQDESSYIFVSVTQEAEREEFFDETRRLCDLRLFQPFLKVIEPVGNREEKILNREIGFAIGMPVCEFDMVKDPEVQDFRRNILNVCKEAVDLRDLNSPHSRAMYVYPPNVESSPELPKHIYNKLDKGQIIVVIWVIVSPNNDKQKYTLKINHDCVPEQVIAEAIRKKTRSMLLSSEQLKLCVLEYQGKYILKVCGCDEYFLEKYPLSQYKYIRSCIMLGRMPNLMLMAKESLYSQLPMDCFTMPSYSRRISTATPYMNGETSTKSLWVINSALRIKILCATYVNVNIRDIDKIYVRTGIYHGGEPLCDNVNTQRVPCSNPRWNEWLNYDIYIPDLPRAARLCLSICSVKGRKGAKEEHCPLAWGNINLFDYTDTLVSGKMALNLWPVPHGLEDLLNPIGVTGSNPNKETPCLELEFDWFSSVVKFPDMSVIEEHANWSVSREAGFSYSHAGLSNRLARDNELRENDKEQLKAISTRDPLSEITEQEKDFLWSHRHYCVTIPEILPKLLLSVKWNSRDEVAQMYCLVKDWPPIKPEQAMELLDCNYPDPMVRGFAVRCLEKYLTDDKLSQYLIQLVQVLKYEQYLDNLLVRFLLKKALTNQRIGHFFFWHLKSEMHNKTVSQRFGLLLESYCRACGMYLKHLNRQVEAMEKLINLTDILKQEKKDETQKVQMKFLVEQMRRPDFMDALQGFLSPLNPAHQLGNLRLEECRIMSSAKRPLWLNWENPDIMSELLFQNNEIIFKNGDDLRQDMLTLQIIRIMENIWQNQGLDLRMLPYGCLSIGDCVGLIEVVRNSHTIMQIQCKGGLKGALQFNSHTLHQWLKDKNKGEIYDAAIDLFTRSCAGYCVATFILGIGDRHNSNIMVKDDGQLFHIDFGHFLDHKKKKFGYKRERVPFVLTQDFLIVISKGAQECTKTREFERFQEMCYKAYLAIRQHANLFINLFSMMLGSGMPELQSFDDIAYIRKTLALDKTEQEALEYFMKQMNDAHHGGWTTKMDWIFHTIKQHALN
# Chain of UniProt Q13153 (whole entry, looked up): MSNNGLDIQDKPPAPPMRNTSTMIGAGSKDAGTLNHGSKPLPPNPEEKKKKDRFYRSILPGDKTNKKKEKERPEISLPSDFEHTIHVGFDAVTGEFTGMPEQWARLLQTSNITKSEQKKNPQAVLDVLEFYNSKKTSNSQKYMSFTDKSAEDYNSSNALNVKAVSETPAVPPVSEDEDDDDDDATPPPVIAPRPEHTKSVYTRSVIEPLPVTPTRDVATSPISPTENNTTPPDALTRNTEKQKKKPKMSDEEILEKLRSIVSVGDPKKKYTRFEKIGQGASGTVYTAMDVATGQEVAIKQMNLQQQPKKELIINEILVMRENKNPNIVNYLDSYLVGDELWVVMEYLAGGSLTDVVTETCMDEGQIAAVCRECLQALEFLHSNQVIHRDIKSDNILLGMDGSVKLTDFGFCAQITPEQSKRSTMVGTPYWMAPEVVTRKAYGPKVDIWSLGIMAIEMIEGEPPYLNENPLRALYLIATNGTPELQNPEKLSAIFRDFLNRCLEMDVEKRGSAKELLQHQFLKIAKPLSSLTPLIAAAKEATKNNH
# Chain of UniProt P51956 (whole entry, looked up): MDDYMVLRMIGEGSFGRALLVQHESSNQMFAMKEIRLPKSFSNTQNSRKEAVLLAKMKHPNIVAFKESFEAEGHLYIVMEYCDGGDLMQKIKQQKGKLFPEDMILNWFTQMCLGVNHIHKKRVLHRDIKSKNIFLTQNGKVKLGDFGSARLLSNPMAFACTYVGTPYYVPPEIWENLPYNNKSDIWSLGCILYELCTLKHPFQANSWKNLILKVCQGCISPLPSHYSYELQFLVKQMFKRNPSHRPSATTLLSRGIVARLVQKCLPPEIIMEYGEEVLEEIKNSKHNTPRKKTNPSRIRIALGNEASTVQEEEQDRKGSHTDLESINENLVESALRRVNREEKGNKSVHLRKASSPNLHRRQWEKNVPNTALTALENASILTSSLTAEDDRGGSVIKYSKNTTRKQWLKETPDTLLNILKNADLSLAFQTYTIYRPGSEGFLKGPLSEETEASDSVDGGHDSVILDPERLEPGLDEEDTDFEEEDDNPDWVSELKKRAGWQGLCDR
# Chain of UniProt Q16659 (whole entry, looked up): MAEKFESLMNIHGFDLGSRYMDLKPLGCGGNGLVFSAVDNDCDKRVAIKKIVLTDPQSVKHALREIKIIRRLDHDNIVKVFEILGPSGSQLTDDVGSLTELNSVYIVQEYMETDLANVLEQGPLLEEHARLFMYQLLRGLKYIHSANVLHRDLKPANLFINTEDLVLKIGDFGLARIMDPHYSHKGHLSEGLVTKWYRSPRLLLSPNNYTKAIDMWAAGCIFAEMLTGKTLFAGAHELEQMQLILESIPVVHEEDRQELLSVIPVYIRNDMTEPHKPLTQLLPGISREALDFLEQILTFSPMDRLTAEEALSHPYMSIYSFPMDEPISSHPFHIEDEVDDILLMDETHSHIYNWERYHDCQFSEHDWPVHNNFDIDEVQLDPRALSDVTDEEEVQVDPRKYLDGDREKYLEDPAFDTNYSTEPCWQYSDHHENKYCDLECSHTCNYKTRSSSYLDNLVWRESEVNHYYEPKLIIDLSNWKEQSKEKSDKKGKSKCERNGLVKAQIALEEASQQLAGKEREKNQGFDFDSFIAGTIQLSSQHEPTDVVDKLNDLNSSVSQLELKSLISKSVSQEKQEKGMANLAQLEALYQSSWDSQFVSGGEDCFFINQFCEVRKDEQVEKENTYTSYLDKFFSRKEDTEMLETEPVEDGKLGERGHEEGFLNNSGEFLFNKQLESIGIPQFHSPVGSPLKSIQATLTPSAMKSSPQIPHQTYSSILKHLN

# Series 1 — tested at: 1 µM
# Compound: Cc1ccc(NC(=O)c2ccnc(C(F)(F)F)c2)cc1-c1cc(OCCO)nc(N2CCOCC2)c1
target,technique,item,notes,reference,remaining binding
"Calcium/calmodulin-dependent protein kinase type 1D (CAMK1D, Homo sapiens, UniProt Q8IU85)",competitive binding panel,,,vehicle,94%
"Serine/threonine-protein kinase PAK 1 (PAK1, Homo sapiens, UniProt Q13153)",competitive binding panel,,,vehicle,85%
"Phosphatidylinositol 5-phosphate 4-kinase type-2 beta (PIP4K2B, Homo sapiens, UniProt P78356)",competitive binding panel,PIP5K2B,,vehicle,100%
"Phosphatidylinositol 4,5-bisphosphate 3-kinase catalytic subunit gamma isoform (PIK3CG, Homo sapiens, UniProt P48736)",competitive binding panel,,,vehicle,81%
"Mitogen-activated protein kinase kinase kinase 13 (MAP3K13, Homo sapiens, UniProt O43283)","competitive binding, scanMAX",,"LZK, 1000 nM",,94%
"Tyrosine-protein kinase Lyn (LYN, Homo sapiens, UniProt P07948)",competitive binding panel,,,vehicle,78%
"cAMP-dependent protein kinase catalytic subunit PRKX (PRKX, Homo sapiens, UniProt P51817)",competitive binding panel,,,vehicle,100%
"Serine/threonine-protein kinase PLK1 (PLK1, Homo sapiens, UniProt P53350)",competitive binding panel,,,vehicle,94%
"Mitogen-activated protein kinase 6 (MAPK6, Homo sapiens, UniProt Q16659)",competitive binding panel,ERK3,,vehicle,78%
"Serine/threonine-protein kinase Nek6 (NEK6, Homo sapiens, UniProt Q9HC98)",competitive binding panel,,,vehicle,81%
"Serine/threonine-protein kinase Nek3 (NEK3, Homo sapiens, UniProt P51956)",competitive binding panel,,,vehicle,95%
"Cyclin-G-associated kinase (GAK, Homo sapiens, UniProt O14976)",competitive binding panel,,,vehicle,95%
"Cyclin-dependent kinase 11B (CDK11B, Homo sapiens, UniProt P21127)",competitive binding panel,CDC2L1,,vehicle,45%
"Dual specificity tyrosine-phosphorylation-regulated kinase 1A (DYRK1A, Homo sapiens, UniProt Q13627)",competitive binding panel,,,vehicle,100%
"Receptor-type tyrosine-protein kinase FLT3 (FLT3, Homo sapiens, UniProt P36888)",competitive binding scan,,autoinhibited form,,99%
"Tyrosine-protein kinase Blk (BLK, Homo sapiens, UniProt P51451)",competitive binding panel,,,vehicle,100%

# Series 2 — observed: binding; technique: thermal shift; tested at: 10 µM; direction: higher = stronger binding
# Structure (SMILES): C[S+]([O-])c1ccc(-c2nc(-c3ccncc3)c(-c3ccc(F)cc3)[nH]2)cc1 (centres unmarked)
target,delta Tm
"Bromodomain and PHD finger-containing protein 3 (BRPF3, Homo sapiens, UniProt Q9ULD4)",0.66 ± 0.1 °C
"Protein polybromo-1, BD4 (PBRM1, Homo sapiens, UniProt Q86U86)",0.6 ± 0.14 °C
"Transcription intermediary factor 1-alpha, PHD-bromodomain (TRIM24, Homo sapiens, UniProt O15164)",0.92 ± 0.3 °C
"SP140L, PHD-bromodomain (Homo sapiens, UniProt Q9H930)",-0.41 ± 0.31 °C
"Peregrin, isoform A (BRPF1, Homo sapiens, UniProt P55201)",0.66 ± 0.21 °C

# Series 3 — observed: enzyme activity; action: inhibitor; tested at: 0.5 µM; reference: control
# Target: Serine/threonine-protein kinase 24 (STK24, Homo sapiens, UniProt Q9Y6E0)
# Chain of UniProt Q9Y6E0 (whole entry, looked up): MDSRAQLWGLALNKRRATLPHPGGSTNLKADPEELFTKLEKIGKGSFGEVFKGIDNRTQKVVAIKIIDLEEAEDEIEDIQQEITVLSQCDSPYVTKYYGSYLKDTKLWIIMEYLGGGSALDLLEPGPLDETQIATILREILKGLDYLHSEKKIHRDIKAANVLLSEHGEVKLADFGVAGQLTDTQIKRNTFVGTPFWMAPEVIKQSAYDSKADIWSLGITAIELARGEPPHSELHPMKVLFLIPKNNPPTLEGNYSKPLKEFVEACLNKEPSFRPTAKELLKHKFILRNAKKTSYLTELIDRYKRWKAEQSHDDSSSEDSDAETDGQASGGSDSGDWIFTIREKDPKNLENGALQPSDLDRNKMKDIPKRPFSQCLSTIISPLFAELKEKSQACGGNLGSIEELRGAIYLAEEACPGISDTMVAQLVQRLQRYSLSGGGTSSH
SMILES,remaining activity [%]
Cn1cc(/C=C2\C(=O)Nc3ccc(S(N)(=O)=O)cc32)c2ccccc21,80.2
COc1ccc(Cl)cc1NC(=O)Nc1cc(C)nc2ccccc12,81.6
O=C1NC(=O)/C(=C/c2ccc3nccnc3c2)S1,93.2
O=C(Nc1ccc(Cl)cc1)c1ccccc1NCc1ccncc1,92.6
O=c1cc(N2CCOCC2)oc2c1ccc1ccccc12,103
COc1cc2ncnc(N3CCN(C(=O)Nc4ccc(Oc5ccccc5)cc4)CC3)c2cc1OC,99.6
CC(=O)O/N=C1/C(c2c(O)[nH]c3cc(Br)ccc23)=Nc2ccccc21,70.9
COc1cc2ncnc(Nc3ccc(OCc4ccccc4)cc3)c2cc1OC,104
Nc1[nH]nc2nnc(-c3c(-c4ccccc4)nn4ccccc34)cc12,74.6
Cn1cnc2cc3c(Nc4cccc(Br)c4)ncnc3cc21,83.4
C[S+]([O-])c1ccc(-c2nc(-c3ccncc3)c(-c3ccc(F)cc3)[nH]2)cc1 (centres unmarked),99
CC(C)c1nn(-c2c(Cl)cccc2Cl)c2nc(Cc3ccc(OCCO)cc3)[nH]c(=O)c12,47.9
CS(=O)(=O)CCNCc1ccc(-c2ccc3ncnc(Nc4ccc(OCc5cccc(F)c5)c(Cl)c4)c3c2)o1,106
Cc1nc(Nc2ncc(C(=O)Nc3c(C)cccc3Cl)s2)cc(N2CCN(CCO)CC2)n1,104
CCOc1cc2ncnc(Nc3cccc(Br)c3)c2cc1OCC,97.6
CCN1/C(=C/C(C)=O)Sc2ccc(OC)cc21,82.2
CCC(=O)Nc1ccc2ncnc(Nc3cccc(Br)c3)c2c1,102
COc1cc2ncc(-c3ccccc3)nc2cc1OC,104
COc1ccc(-c2cnc3c(-c4ccsc4)cnn3c2)cc1,95.5
Cc1ccc(NC(=O)c2ccc(CN3CCN(C)CC3)cc2)cc1Nc1nccc(-c2cccnc2)n1,107
CN(C)CCCn1cc(C2=C(c3c[nH]c4ccccc34)C(=O)NC2=O)c2ccccc21,52.9
CC(C)[C@H](CO)Nc1nc(Nc2cccc(Cl)c2)c2ncn(C(C)C)c2n1,80.8

# Series 4 — tested at: 1 µM
# SMILES: O=C(Nc1cccnn1)N1CCC(=Cc2cccc(Oc3ccc(C(F)(F)F)cn3)c2)CC1
target,observed,technique,remaining binding [%]
"Non-receptor tyrosine-protein kinase TYK2, JH1 (TYK2, Homo sapiens, UniProt P29597)",cell-free assay,competition with immobilised ligand,100
"Tyrosine-protein kinase HCK (HCK, Homo sapiens, UniProt P08631)",cell-free assay,competition with immobilised ligand,98
"Phosphatidylinositol 4,5-bisphosphate 3-kinase catalytic subunit alpha isoform (PIK3CA, Homo sapiens, UniProt P42336)",binding,competition with immobilised ligand,45
"Epidermal growth factor receptor (EGFR, Homo sapiens, UniProt P00533, del746-750)",cell-free assay,competition with immobilised ligand,73
"Mitogen-activated protein kinase kinase kinase 3 (MAP3K3, Homo sapiens, UniProt Q99759)",cell-free assay,competition with immobilised ligand,100
"Mitogen-activated protein kinase 11 (MAPK11, Homo sapiens, UniProt Q15759)",cell-free assay,competition with immobilised ligand,83
"Serine/threonine-protein kinase SBK1 (SBK1, Homo sapiens, UniProt Q52WX2)",cell-free assay,competition with immobilised ligand,100
"AP2-associated protein kinase 1 (AAK1, Homo sapiens, UniProt Q2M2I8)",binding,,74
"Serine/threonine-protein kinase WNK3 (WNK3, Homo sapiens, UniProt Q9BYP7)",cell-free assay,competition with immobilised ligand,100
"Fibroblast growth factor receptor 1 (FGFR1, Homo sapiens, UniProt P11362)",cell-free assay,competition with immobilised ligand,100
"Serine/threonine-protein kinase PLK1 (PLK1, Homo sapiens, UniProt P53350)",cell-free assay,competition with immobilised ligand,100
"Epidermal growth factor receptor (EGFR, Homo sapiens, UniProt P00533, T790M)",cell-free assay,competition with immobilised ligand,100
"Serine/threonine-protein kinase 36 (STK36, Homo sapiens, UniProt Q9NRP7)",cell-free assay,competition with immobilised ligand,100
"Casein kinase I isoform alpha-like (CSNK1A1L, Homo sapiens, UniProt Q8N752)",cell-free assay,competition with immobilised ligand,76
"Receptor-type tyrosine-protein kinase FLT3, autoinhibited (FLT3, Homo sapiens, UniProt P36888)",cell-free assay,competition with immobilised ligand,97
"Cyclin-dependent kinase 19 (CDK19, Homo sapiens, UniProt Q9BWU1)",,competition binding,100
"Bone morphogenetic protein receptor type-2 (BMPR2, Homo sapiens, UniProt Q13873)",cell-free assay,competition with immobilised ligand,100
"Proto-oncogene tyrosine-protein kinase Src (SRC, Homo sapiens, UniProt P12931)",cell-free assay,competition with immobilised ligand,88
"Mitogen-activated protein kinase kinase kinase 19 (MAP3K19, Homo sapiens, UniProt Q56UN5)",cell-free assay,competition with immobilised ligand,85
"Myosin light chain kinase 2, skeletal/cardiac muscle (MYLK2, Homo sapiens, UniProt Q9H1R3)",cell-free assay,competition with immobilised ligand,88
"Serine/threonine-protein kinase 10 (STK10, Homo sapiens, UniProt O94804)",cell-free assay,competition with immobilised ligand,74
"Phosphatidylinositol 4,5-bisphosphate 3-kinase catalytic subunit alpha isoform (PIK3CA, Homo sapiens, UniProt P42336, E542K)",cell-free assay,competition with immobilised ligand,65
"Myosin light chain kinase family member 4 (MYLK4, Homo sapiens, UniProt Q86YV6)",cell-free assay,competition with immobilised ligand,100
"Glycogen synthase kinase-3 beta (GSK3B, Homo sapiens, UniProt P49841)",cell-free assay,competition with immobilised ligand,100
"Mitogen-activated protein kinase kinase kinase 15 (MAP3K15, Homo sapiens, UniProt Q6ZN16)",cell-free assay,competition with immobilised ligand,100

# A few entries again (series 4):
target,observed,technique,remaining binding [%]
"Serine/threonine-protein kinase WNK3 (WNK3, Homo sapiens, UniProt Q9BYP7)",cell-free assay,competition with immobilised ligand,100
"Fibroblast growth factor receptor 1 (FGFR1, Homo sapiens, UniProt P11362)",cell-free assay,competition with immobilised ligand,100
"Serine/threonine-protein kinase PLK1 (PLK1, Homo sapiens, UniProt P53350)",cell-free assay,competition with immobilised ligand,100
"Epidermal growth factor receptor (EGFR, Homo sapiens, UniProt P00533, T790M)",cell-free assay,competition with immobilised ligand,100
"Serine/threonine-protein kinase 36 (STK36, Homo sapiens, UniProt Q9NRP7)",cell-free assay,competition with immobilised ligand,100
"Casein kinase I isoform alpha-like (CSNK1A1L, Homo sapiens, UniProt Q8N752)",cell-free assay,competition with immobilised ligand,76
"Receptor-type tyrosine-protein kinase FLT3, autoinhibited (FLT3, Homo sapiens, UniProt P36888)",cell-free assay,competition with immobilised ligand,97
"Cyclin-dependent kinase 19 (CDK19, Homo sapiens, UniProt Q9BWU1)",,competition binding,100
"Bone morphogenetic protein receptor type-2 (BMPR2, Homo sapiens, UniProt Q13873)",cell-free assay,competition with immobilised ligand,100
"Proto-oncogene tyrosine-protein kinase Src (SRC, Homo sapiens, UniProt P12931)",cell-free assay,competition with immobilised ligand,88
"Mitogen-activated protein kinase kinase kinase 19 (MAP3K19, Homo sapiens, UniProt Q56UN5)",cell-free assay,competition with immobilised ligand,85
